Assay results gathered from unrelated publications.
Numbered parts are unrelated; each lists some results of a single study.

Set 1 — technique: RNA Bind-n-Seq; molecule type: RNA; matrix: in vitro; concentration: 200 nM; setting: whole 134-nt RNA, ends assumed; with: 150 mM KCl; relative to: input library; reading: higher = stronger binding
Target: Ras GTPase-activating protein-binding protein 1, full length (G3BP1, Homo sapiens, UniProt Q13283)
Sequence of UniProt Q13283 (whole entry, looked up): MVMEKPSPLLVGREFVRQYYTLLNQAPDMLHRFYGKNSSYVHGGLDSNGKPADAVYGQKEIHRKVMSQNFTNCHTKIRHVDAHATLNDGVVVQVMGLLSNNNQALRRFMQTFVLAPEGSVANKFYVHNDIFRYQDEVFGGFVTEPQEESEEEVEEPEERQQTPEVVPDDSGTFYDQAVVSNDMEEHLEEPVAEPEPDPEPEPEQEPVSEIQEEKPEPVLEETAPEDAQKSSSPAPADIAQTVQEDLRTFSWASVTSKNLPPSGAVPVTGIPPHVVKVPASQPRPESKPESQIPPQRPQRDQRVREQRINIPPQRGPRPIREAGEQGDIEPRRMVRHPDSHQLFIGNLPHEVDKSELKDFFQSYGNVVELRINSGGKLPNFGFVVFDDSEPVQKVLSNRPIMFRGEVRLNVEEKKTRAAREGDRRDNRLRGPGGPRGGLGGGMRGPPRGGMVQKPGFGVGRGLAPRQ
All sequences stand within: GGGAGUUCUACAGUCCGACGAUC … UGGAAUUCUCGGGUGUCAAGG
| Strand | log2 enrichment |
| --- | --- |
| GUCCUGUGCUACACAUCGUAUGUACCGAAUCGGUUUUUGGUUUUUUUGGAAAAAAAGGAAAGUAUUAUGUUACGCCGUUCGGAUCUGCAC | -1.15 |
| GCAGGAAAUAAAAACAAAUGGAAAUGCUUCGGAUAGUGGCAGGGGUGGGGGUUGCUAAGGAAAGGGUGGGAUGGGAGUGGGUAAAGAGUU | 0.716 |
| CUCAAGUCCUGUGCUACACAUCGUAUGUACCGAAUCGGUGGUUUUUGGUUUGGAAAGUAUUAUGUUACGCCGUUCGGAUCUGCACUUCCA | -0.577 |
| AGUCCUGUGCUACACAUCGUAUGUACCGAAUCGGGGUUUUGGGGUUUUGGGGUUUUGGAAAGUAUUAUGUUACGCCGUUCGGAUCUGCAC | -0.0459 |
| CAAGUCCUGUGCUACACAUCGUAUGUACCGAAUCGGUUUGGAAAAAGGUUUUUGGAAAGUAUUAUGUUACGCCGUUCGGAUCUGCACUUC | -1.05 |
| UGGGAGGUGGAUUUUGUUUAUUUUUUUAGCUCAUUUCCAGGGGUGGGAAUUUUUUUUUAAUAUUUGUCAUGAAUAAAGUUGUUUUUGAAA | 0.0322 |
| UGGGAGGUGGAUUUUGUUUAUUUUUUUAGCUCAUUUCCAGGGGUGGGAAGUUUUUUUUAAUAUGUGUCAUGAAUAAAGUUGUUUUUGAAA | 0.335 |
| CACAGACAACACGCACCCACACAGACACAGAGGGAAGGGGUUGGGAUGGGGACAGGGUGCACAGCAGGGCGGGGUAGGAACCCAGCCCCU | 1.69 |
| GUCCUGUGCUACACAUCGUAUGUACCGAAUCGGGCCCCCCGGCCCCCCGGCCCCCCGGAAAGUAUUAUGUUACGCCGUUCGGAUCUGCAC | -0.0686 |

Set 2 — technique: protein binding microarray; molecule type: double-stranded DNA, one strand shown; matrix: in vitro; concentration: not given; relative to: not given; reading: higher = stronger binding
Target: Histone acetyltransferase KAT6A, winged helix 1, GST fusion (KAT6A, Homo sapiens, UniProt Q92794, residues 1-85)
Setting: 8-mer, flanks averaged, mean of 2 arrays, mostly near background
Residues (chain): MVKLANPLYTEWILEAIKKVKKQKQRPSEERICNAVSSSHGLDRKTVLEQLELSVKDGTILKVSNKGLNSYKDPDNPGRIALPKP
| Strand | E-score |
| --- | --- |
| CGATGGGC | -0.0323 |
| ATTCTGCC | 0.015 |
| CCACAACC | -0.0816 |
| CCCACAAG | -0.145 |
| AAGTAATA | 0.033 |
| CAATCGCG | 0.183 |
| CATCTGTC | -0.0404 |
| TCTTAAGA | -0.242 |
| AAATAACA | 0.0219 |
| CCACGGAC | 0.177 |
| GCCACGTA | -0.0941 |
| AAACCAGC | -0.00774 |
| CTGTCTAC | -0.17 |
| CATCAAGA | -0.108 |
| GAGTAAAC | -0.0288 |
| CTGGCCTC | 0.0442 |
| ATTATACC | 0.0132 |

Set 3 — technique: RNA Bind-n-Seq; molecule type: RNA; matrix: in vitro; concentration: not given; relative to: input RNA pool; reading: higher = stronger binding
Target: RING finger protein unkempt homolog, zinc fingers 1-6, GST-SBP tag (UNK, Homo sapiens, UniProt Q9C0B0, residues 30-357)
Setting: RNA with constant flanks, human and mouse sites, ends assumed
All sequences stand within: GGGAGUUCUACAGUCCGACGAUC … CAACAGAGGAUUGAGCAUCA
Residues (chain): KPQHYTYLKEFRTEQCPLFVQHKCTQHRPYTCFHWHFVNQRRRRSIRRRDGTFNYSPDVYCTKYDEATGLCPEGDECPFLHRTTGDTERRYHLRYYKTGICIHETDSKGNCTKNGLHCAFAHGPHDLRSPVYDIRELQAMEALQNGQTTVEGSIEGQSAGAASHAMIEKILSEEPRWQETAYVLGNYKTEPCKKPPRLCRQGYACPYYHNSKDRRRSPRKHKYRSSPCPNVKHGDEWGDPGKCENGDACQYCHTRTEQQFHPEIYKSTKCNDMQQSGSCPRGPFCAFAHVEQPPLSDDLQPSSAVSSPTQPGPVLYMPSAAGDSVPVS
| Strand | bound/input enrichment |
| --- | --- |
| AUGGAUAUUGAAUUUGACUUUAAAGGCGAUCCACUAGGAGGAGUAAUAAGUAACUAUCUUUUAGAGAAAUCUCGGGUUGUUAAACAGCCAAGAGGUGAAAGAAACUUCCAUGUGUUCUAU | 0.182 ratio |
| AGAUGGUUCCAGAAAAACGAGCCUCAGCUGGCGAAUGCCUUCGACAUCCUUGGUUGAAUUCUUAGCAGAUUCUACAAAUAUAGCAUUCUGAGCUAGCAAAUUUCUCCCAGUACAUUGGAC | 0.77 ratio |
| UUUUUGACUUUGUAUUGCUGCCAAACCUGUAACUGUUGAAUUUCAGGAGUGGGGUGGAAAAGGAAACGUGUUUCUUCACUAAGUGAGCAUGUUCCAGGGGUGCAUCCCAGCUGCCCAGGC | 0.231 ratio |
| CUUGGUGGCGAAUGUGUUGCGGGUCCUGUUGGGCUGCUUUCUGUAUUGUCUCCUAACCCUCUAGUUUUAAUUGGACACUUCUUUGCUGUUGCAAUCUAUGCCGUGUAUUUUUGCUUUAAG | 3.93 ratio |
| GACUUAGAUAAUUCUUUGGAAGUGAAAGCUAAACCUGCUUCUGGCCUAGAUGGUAAUUUCAAUAGUGUCCGAAUGGAUAUGUUCAGUGUGUAGGAGUGAAGACAGGAUCCCGUGCUUAAA | 0.666 ratio |
| AAAGGACAUUUAUUUGUUCUUUGUCAAGCUGUAAAUACUCUACUAAGUUUGGAAGAGUCUUCAGAACUUCUUCAUCUGGUUCCUGUGGGACGAGUGAAGCACUUAGUGUUGACCUUUCCA | 0.0586 ratio |
| CUGGGAUGGUGGAAUUGGGGUUAUUUCUACAAUUAUUCUUAGACGAUUACUAAACUGUUAAGAAAUGCCCCAUAUCAUUUUUGUAUCUAGGAAAGAAAAAAAUCAGUUUCAUACUGUUGU | 1.31 ratio |
| UGCUGGCUCUGUUUUUCUGUAAAUAAAUUUGCAUAUUUUGUAGGACUUUUAAUUGUAAUGAUAGAGAAAAAACAAGGAAAACUAUUUAAUGAAAGCACGAUAUUUAUCUUUGGUAAAUGA | 1.88 ratio |

Set 4 — technique: EMSA with sequencing; molecule type: double-stranded DNA, one strand shown; matrix: in vitro; concentration: 10 and 20 nM; relative to: negative control set to 0; reading: higher = stronger binding
Target: Hepatocyte nuclear factor 3-alpha (Foxa1, Mus musculus, UniProt P35582, residues 1-468, full length assumed)
Setting: whole designed probe, mean of two concentrations, ends assumed
All sequences stand within: GTGAGCGGTGCCCATTGATGGGGAAC … TTTCACTGGGATCGTGGGGAC
Residues (chain): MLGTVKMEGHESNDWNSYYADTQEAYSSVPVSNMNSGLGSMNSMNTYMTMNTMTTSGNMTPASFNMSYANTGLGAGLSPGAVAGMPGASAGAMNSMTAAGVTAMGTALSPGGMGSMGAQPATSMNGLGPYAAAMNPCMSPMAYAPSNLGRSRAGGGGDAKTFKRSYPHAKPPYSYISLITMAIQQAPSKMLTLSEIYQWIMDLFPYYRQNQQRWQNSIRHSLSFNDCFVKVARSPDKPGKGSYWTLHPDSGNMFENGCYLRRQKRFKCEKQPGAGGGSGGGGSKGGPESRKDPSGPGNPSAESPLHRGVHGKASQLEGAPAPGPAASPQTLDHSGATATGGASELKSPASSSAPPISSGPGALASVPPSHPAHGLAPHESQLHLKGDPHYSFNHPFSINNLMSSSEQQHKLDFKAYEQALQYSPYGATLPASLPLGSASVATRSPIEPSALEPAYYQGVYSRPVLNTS
| Strand | normalised bound fraction |
| --- | --- |
| AAGAGCCCGGCGGTAGGGCCATATGTTCCCCATAATCTCCAAAGCCGTCACTTCAATTAGAGCCTCCCCTGAGTTCTAATGCCCAATCCTGAGTAAACAAGCCGCTCTGAAAGAAGAACTCGGTTTCCAATTAAAAGTGTACTAACATTTCTCCTTCCTTTAATTCCCGCGGAGCAAAGCCCCGCGCGGGCGG | 0.338 ratio |
| ATCTTCCCCCTCTTCCTTGCCCCACCAGCTCACCTACGGGGGTTATTTGCAGATAGGAAAATAAATAAAGCCGGCATTCGTTAACGCAGTTCTGGCGCAAACTGCTGTTTGCTCTGGATCTAACATGGTCCTTTGGCGACGCCAGGCTCCGGGAGAGCAAAGCACCGTGTCAGGGCCATGATCCGGGCTCGCC | 0.344 ratio |
| ACCAAATCTGAAAATAAGTTAATCCTTTCTGTGTGTTTGCTGCAATTAAACTATTTTCACAAACAATTTATACTGCTCTAAAGGTCTATGTTTGTTTACATAGGAAGTGTTTATTTTTCCAAGAAAGTAAATTTATTGATTTTCTCATATGTCTCACAGACGCAAAGAAAAAAAAAAGGTTTCTTGAATGGTA | 0.565 ratio |
| TTTCCAGCCCTTAGTTTCTGGCATTTAACCTGACTCTGGTCCCTGAATGGCATGGGAGTGCTTTCAACCACAGGTTTCCACATTCATGCAAAAGCAAACAAGTGTGATCTACAGAGATCTCTGACTCATTCTTATTTGCTTTGTGTTTCCAATGGAGAAAGAGCTTGGGAAGGGAGGATCCTAATTGTCTAAA | 0.549 ratio |
| CTTTGCAAAGCTATGCAAATTATAAAGCAATTCATTATGGTTAAGAAAAGAGTTTTTCCCAAAGAGCTGCAAATACTCACCAGTGACACAAAGTAAACAAAGACCCAAAGATGGAACCAAAAGATAGTTCTTGTCTTTAGAGGAAGAATATCCAAGATGCATTGGACAGAACAAATAATACCCTAGTGTGTTA | 0.545 ratio |

Some of these lines once more (set 1):
| Strand | log2 enrichment |
| --- | --- |
| AGUCCUGUGCUACACAUCGUAUGUACCGAAUCGGGGUUUUGGGGUUUUGGGGUUUUGGAAAGUAUUAUGUUACGCCGUUCGGAUCUGCAC | -0.0459 |
| CACAGACAACACGCACCCACACAGACACAGAGGGAAGGGGUUGGGAUGGGGACAGGGUGCACAGCAGGGCGGGGUAGGAACCCAGCCCCU | 1.69 |
| CUCAAGUCCUGUGCUACACAUCGUAUGUACCGAAUCGGUGGUUUUUGGUUUGGAAAGUAUUAUGUUACGCCGUUCGGAUCUGCACUUCCA | -0.577 |
| GUCCUGUGCUACACAUCGUAUGUACCGAAUCGGGCCCCCCGGCCCCCCGGCCCCCCGGAAAGUAUUAUGUUACGCCGUUCGGAUCUGCAC | -0.0686 |
| UGGGAGGUGGAUUUUGUUUAUUUUUUUAGCUCAUUUCCAGGGGUGGGAAUUUUUUUUUAAUAUUUGUCAUGAAUAAAGUUGUUUUUGAAA | 0.0322 |
